Results pooled from the literature.
Compare with care: the assays were run in different laboratories. ± gives the spread as reported.

`O=c1c(OCc2ccccc2)c(-c2ccc([N+](=O)[O-])cc2)oc2ccccc12` has a blood glucose of 288 ± 5.38 mg/dL (diabetic rat; 7.5 mg/kg, day 14, p-nitrophenyl β-glucoside induced).
`CC(C)C[C@H](NC(=O)[C@H](CO)NC(=O)[C@H](CCCNC(=N)N)NC(=O)[C@H](CC(=O)O)NC(=O)[C@H](CCC(=O)O)NC(=O)[C@H](C)NC(=O)[C@@H]1CCCN1C(=O)[C@H](C)NC(=O)[C@H](CCC(=O)O)NC(=O)[C@@H]1CCCN1C(=O)[C@@H]1CCCN1)C(N)=O`: “HVA level reduction” 21% (dopamine system; rhesus monkey, contralateral globus pallidus; intranasal, dose not given, repeated dose escalation; baseline: vehicle).
For `O=C1/C(=C/c2ccc(O)c(O)c2)Oc2c1c(O)cc1oc3cc(O)c(O)cc3c21`, the EC50 was 110 µM (DPPH scavenging, absorbance).
`CCCCCCCCCCCCCCC(Br)C(=O)O[C@@H](C(=O)O[C@H]1C[C@@]2(O)[C@@H](OC(=O)c3ccccc3)[C@@H]3[C@]4(OC(C)=O)CO[C@@H]4C[C@H](O)[C@@]3(C)C(=O)[C@H](OC(C)=O)C(=C1C)C2(C)C)[C@@H](NC(=O)c1ccccc1)c1ccccc1` (stereo partly drawn): “Vmax of tubulin polymerization” 20 ± 1.4 mOD/min (tubulin; 10 µM, 37 °C, with: tubulin 3 mg/mL).
For `CNCc1ccc2c(c1)N(C(=O)OC)[C@H](CNC(=N)N)[C@H]2NC(=O)C(=O)Nc1ccc(Cl)c(F)c1`, “potency fold increase” read 2.5 fold (HIV-1 JR-FL pseudovirus; viral infection; Cf2Th-CD4/CCR5 cells; baseline: BNM-III-170).
`COc1cc(CNC(=O)C[C@H](C)CCC=C(C)C)ccc1OCc1cn(-c2ccccc2F)nn1` has a growth percent of 38.4% (RXF 393; SRB; 10 µM, 48 h).
For `CC[C@H]1[C@@H](O)[C@@H]2[C@H](CC[C@]3(C)[C@@H]([C@H](C)CCOS(=O)(=O)[O-])CC[C@@H]23)[C@@]2(C)CC[C@@H](O)C[C@@H]12.[Na+]`, the fractional area was 5.4 ± 0.2% (immunohistochemistry, refers to: galectin-3; ob/ob NASH mouse model, liver; 3.0 mg/kg, 16 weeks).
With `COc1cc(CNC(=O)C[C@H](C)CCC=C(C)C)ccc1O` the growth percent was 89% (T47D breast cancer cells; SRB; 10 µM, 48 h).
`CO[C@@H]1[C@H](O)[C@@H](COP(=O)(O)OP(=O)([S-])OP(=O)(S)OC[C@H]2O[C@@H](n3cnc4c(=O)[nH]c(N)nc43)[C@H](O)[C@@H]2O)O[C@H]1n1c[n+](C)c2c(O)nc(N)nc21` (mixture of isomers) gave a decapping of 29.7 ± 2.8% (Schizosaccharomyces pombe Dcp1/Dcp2 complex; substrate; capped short RNA; 5 min, 30 °C).
`COc1cc(CNC(=O)C[C@H](C)CCC=C(C)C)ccc1OCc1cn(-c2ccc([N+](=O)[O-])cc2)nn1` gave a growth percent of 72.7% (ACHN; SRB; 10 µM, 48 h).
For `CCOC(=O)C1=C(C)NC2=C(C(=O)CC(C)(C)C2)C1c1ccc(OCC(=O)NN=Cc2cc(Br)c(O)c(Br)c2)cc1OCC(=O)NN=Cc1cc(Br)c(O)c(Br)c1` (stereo not drawn), “inhibition zone diameter” read 5.6 ± 0.3 mm (Proteus vulgaris; FMC II; concentration not given, 24 h, 37 °C).
`COc1cc(CNC(=O)C[C@H](C)CCC=C(C)C)ccc1OCc1cn(-c2cccc([N+](=O)[O-])c2)nn1` gave a growth percent of 99.5% (MDA-MB-435 melanoma cells; SRB; 10 µM, 48 h).
`CCC(=O)N(C)c1ccc(Cl)c(Cl)c1` gave a fold activation of 0.48 fold (CAR3 constitutive androstane receptor, human; reporter gene, agonist; 0.32 µM; baseline: vehicle).
With `COc1cc(CNC(=O)C[C@H](C)CCC=C(C)C)ccc1OCc1cn(-c2ccc(C#N)cc2)nn1` the growth percent was 81% (EKVX; SRB; 10 µM, 48 h).
The Kd of `CC[C@H](C)[C@@H]1NC(=O)[C@H](CCCNC(=N)N)NC(=O)[C@H](C)NC(=O)CNC(=O)[C@H](CCCCN)NC(=O)[C@H](CCCNC(=N)N)NC(=O)[C@H](C(C)C)NC(=O)[C@H](C)NC(=O)[C@@H]2CSSC[C@@H]3NC(=O)[C@H](CO)NC(=O)[C@H]([C@@H](C)O)NC(=O)CNC(=O)[C@H](CCCNC(=N)N)NC(=O)[C@@H]4CCCN4C(=O)[C@H](CSSC[C@@H](C(=O)N[C@@H](CC(C)C)C(=O)O)NC(=O)[C@H](CCCCN)NC(=O)[C@H](CC(C)C)NC(=O)[C@H](CC(C)C)NC(=O)[C@H](Cc4ccccc4)NC(=O)[C@H](CO)NC(=O)[C@H](CC(N)=O)NC3=O)NC(=O)[C@H](CC(=O)O)NC(=O)[C@H](CSSC[C@H](NC(=O)[C@H](CCSC)NC(=O)[C@@H]3CCCN3C(=O)[C@@H](NC(=O)[C@H](CCC(N)=O)NC(=O)CNC(=O)[C@H](Cc3ccc(O)c(I)c3)NC(=O)[C@@H](N)CCCCN)C(C)C)C(=O)N[C@@H](CC(=O)O)C(=O)N[C@@H](C)C(=O)NCC(=O)N[C@@H](CCC(=O)O)C(=O)N[C@@H](CCC(N)=O)C(=O)N2)NC(=O)[C@H](CC(C)C)NC(=O)[C@H](CCCCN)NC(=O)CNC1=O` is reported as 0.00042 ± 0.00011 µM (CART binding site, rat; differentiated PC-12; pH 7.4).

Repeated from above:
`CC(C)C[C@H](NC(=O)[C@H](CO)NC(=O)[C@H](CCCNC(=N)N)NC(=O)[C@H](CC(=O)O)NC(=O)[C@H](CCC(=O)O)NC(=O)[C@H](C)NC(=O)[C@@H]1CCCN1C(=O)[C@H](C)NC(=O)[C@H](CCC(=O)O)NC(=O)[C@@H]1CCCN1C(=O)[C@@H]1CCCN1)C(N)=O`: “HVA level reduction” 21% (dopamine system; rhesus monkey, contralateral globus pallidus; intranasal, dose not given, repeated dose escalation; baseline: vehicle).
`COc1cc(CNC(=O)C[C@H](C)CCC=C(C)C)ccc1OCc1cn(-c2cccc([N+](=O)[O-])c2)nn1` gave a growth percent of 99.5% (MDA-MB-435 melanoma cells; SRB; 10 µM, 48 h).
